# Measured values of several laboratories.
# Lines come from different studies, so protocols differ. Numbers after ± are the reported error.
SMILES,test system,setting,scale,endpoint,result
Cc1cc(-c2ccc(NC(=O)[C@H](CCCCNC(=O)CCOCCOCCC(=O)N[C@H](Cc3ccccc3)C(=O)N[C@H]3CSSC[C@@H](C(=O)N[C@H](C(=O)O)[C@@H](C)O)NC(=O)[C@H]([C@@H](C)O)NC(=O)[C@H](CCCCN)NC(=O)[C@@H](Cc4c[nH]c5ccccc45)NC(=O)[C@H](Cc4ccc(O)cc4)NC3=O)NC(=O)CN3CCN(CC(=O)O)CCN(CC(=O)O)CCN(CC(=O)O)CC3)c(C)c2)ccc1N=Nc1ccc2c(S(=O)(=O)O)cc(S(=O)(=O)O)c(N)c2c1O [lutetium-177 labelled],"patients with metastatic NETs, all metastatic lesions",,,residence time,0.98 ± 0.81 h
N=C(N)NCCC[C@@H]1NC(=O)[C@H](CCCCNC(=O)CC[C@H](NC(=O)CC[C@H](NC(=O)CN2CCN(CC(=O)O)CCN(CC(=O)O)CCN(CC(=O)O)CC2)C(=O)N[C@@H](CCC(=O)NCCCC[C@@H]2NC(=O)[C@@H](Cc3ccccc3)NC(=O)[C@H](CC(=O)O)NC(=O)CNC(=O)[C@H](CCCNC(=N)N)NC2=O)C(=O)NCCCC[C@@H]2NC(=O)[C@@H](Cc3ccccc3)NC(=O)[C@H](CC(=O)O)NC(=O)CNC(=O)[C@H](CCCNC(=N)N)NC2=O)C(=O)NCCCC[C@@H]2NC(=O)[C@@H](Cc3ccccc3)NC(=O)[C@H](CC(=O)O)NC(=O)CNC(=O)[C@H](CCCNC(=N)N)NC2=O)NC(=O)[C@@H](Cc2ccccc2)NC(=O)[C@H](CC(=O)O)NC(=O)CNC1=O [indium-111 labelled],"female athymic nu/nu mice, intestine","intravenous, 72 h",,tissue uptake,3.37 ± 0.3 %ID/g
CCCC[C@H](NC(=O)CNC(=O)CNC(=O)CN1CCN(CC(=O)O)CCN(CC(=O)O)CCN(CC(=O)O)CC1)C(=O)N[C@H]1CC(=O)NCCCC[C@@H](C(N)=O)NC(=O)[C@H](Cc2c[nH]c3ccccc23)NC(=O)[C@H](CCCNC(=N)N)NC(=O)[C@@H](Cc2ccccc2)NC(=O)[C@H](Cc2c[nH]cn2)NC1=O [lutetium-177 labelled],"C57 mouse, female, heart","intravenous, 0.037 MBq, 4 h",,tissue uptake,0.23 ± 0.11 %ID/g
CCCC[C@H](NC(=O)CCCCCCCNC(=O)CN1CCN(CC(=O)O)CCN(CC(=O)O)CC1)C(=O)N[C@H]1CC(=O)NCCCC[C@@H](C(N)=O)NC(=O)[C@H](Cc2c[nH]c3ccccc23)NC(=O)[C@H](CCCNC(=N)N)NC(=O)[C@@H](Cc2ccccc2)NC(=O)[C@H](Cc2c[nH]cn2)NC1=O [copper-64 labelled],"C57 mice, brain","intravenous, 0.37 MBq, 4 h",,tissue uptake,0.02 %ID/g
Cc1cc(-c2ccc(NC(=O)[C@H](CCCCNC(=O)CCN3C(=O)CC(SCCC(=O)N[C@H](Cc4ccccc4)C(=O)N[C@H]4CSSC[C@@H](C(=O)N[C@H](C(=O)O)[C@@H](C)O)NC(=O)[C@H]([C@@H](C)O)NC(=O)[C@H](CCCCN)NC(=O)[C@@H](Cc5c[nH]c6ccccc56)NC(=O)[C@H](Cc5ccc(O)cc5)NC4=O)C3=O)NC(=O)CN3CCN(CC(=O)O)CCN(CC(=O)O)CCN(CC(=O)O)CC3)c(C)c2)ccc1N=Nc1ccc2c(S(=O)(=O)O)cc(S(=O)(=O)O)c(N)c2c1O (some centres unmarked) [lutetium-177 labelled],"patients with metastatic NETs, whole body",,,residence time,167 ± 8.75 h
N=C(N)NCCC[C@H](NC(=O)[C@@H]1CSSC[C@H](NC(=O)[C@H](Cc2ccc3ccccc3c2)NC(=O)[C@H](CCCNC(=N)N)NC(=O)[C@H](CCCNC(=N)N)NC(=O)CN2CCN(CC(=O)O)CCN(CC(=O)O)CC2)C(=O)N[C@@H](Cc2ccc(O)cc2)C(=O)N[C@@H](CCCNC(N)=O)C(=O)N[C@@H](CCCCN)C(=O)N[C@H](CCCCN)C(=O)N2CCC[C@H]2C(=O)N[C@@H](Cc2ccc(O)cc2)C(=O)N[C@@H](CCCNC(=N)N)C(=O)N[C@@H](CCCNC(N)=O)C(=O)N1)C(N)=O [gallium-68 labelled],human patients,5 mCi per scan,,acquisitions per year,≤ 14
CCCC[C@H](NC(=O)COCCOCCNC(=O)CN1CCN(CC(=O)O)CCN(CC(=O)O)CC1)C(=O)N[C@H]1CC(=O)NCCCC[C@@H](C(N)=O)NC(=O)[C@H](Cc2c[nH]c3ccccc23)NC(=O)[C@H](CCCNC(=N)N)NC(=O)[C@@H](Cc2ccccc2)NC(=O)[C@H](Cc2c[nH]cn2)NC1=O [copper-64 labelled],"C57 mice, pancreas","intravenous, 0.37 MBq, 0.5 h",,tissue uptake,1.1 ± 0.2 %ID/g
N=C(N)NCCC[C@@H]1NC(=O)[C@H](CCCCNC(=O)CNC(=O)CNC(=O)CNC(=O)CC[C@H](NC(=O)CNC(=O)CNC(=O)CNC(=O)CC[C@H](NC(=O)CN2CCN(CC(=O)O)CCN(CC(=O)O)CCN(CC(=O)O)CC2)C(=O)NCC(=O)NCC(=O)NCC(=O)N[C@@H](CCC(=O)NCC(=O)NCC(=O)NCC(=O)NCCCC[C@@H]2NC(=O)[C@@H](Cc3ccccc3)NC(=O)[C@H](CC(=O)O)NC(=O)CNC(=O)[C@H](CCCNC(=N)N)NC2=O)C(=O)NCC(=O)NCC(=O)NCC(=O)NCCCC[C@@H]2NC(=O)[C@@H](Cc3ccccc3)NC(=O)[C@H](CC(=O)O)NC(=O)CNC(=O)[C@H](CCCNC(=N)N)NC2=O)C(=O)NCC(=O)NCC(=O)NCC(=O)NCCCC[C@@H]2NC(=O)[C@@H](Cc3ccccc3)NC(=O)[C@H](CC(=O)O)NC(=O)CNC(=O)[C@H](CCCNC(=N)N)NC2=O)NC(=O)[C@@H](Cc2ccccc2)NC(=O)[C@H](CC(=O)O)NC(=O)CNC1=O [indium-111 labelled],"female athymic nu/nu mice, spleen","intravenous, 111 kBq, 1 h",,tissue uptake,2.38 ± 0.49 %ID/g
CN1C(=O)[C@@H](Cc2ccc(O)cc2)NC(=O)CNC(=O)[C@H](Cc2ccc3ccccc3c2)NC(=O)[C@H](CCCNC(=N)N)NC(=O)[C@H]1CCCNC(=O)c1ccc(CNC(=O)CN2CCN(CC(=O)O)CCN(CC(=O)O)CCN(CC(=O)O)CC2)cc1 [gallium-68 labelled],"adult reference man, from C57BL/6 mice data, heart wall",dose not given,,time-integrated activity coefficient,0.015 ± 0.005 MBq-h/MBq
CC1=C(I)C(C)=[N+]2C1=C(c1ccc(OCCn3cc(CNC(=O)CSC[C@H](NC(=O)c4ccc(-c5nnc(C)nn5)cc4)C(=O)N[C@@H](CCCNC(=N)N)C(=O)N[C@@H](CCCNC(=N)N)C(=O)N[C@@H](CCCNC(=N)N)C(=O)N[C@@H](CCCNC(=N)N)C(=O)N[C@@H](CCCNC(=N)N)C(N)=O)nn3)cc1)c1c(C)c(I)c(C)n1[B-]2(F)F,,"1 µM, added: DPBF, 525 nm light","relative to: rose bengal, erythrosine B",singlet oxygen quantum yield,0.55
N=C(N)NCCC[C@@H]1NC(=O)[C@H](CCCCNC(=O)CNC(=O)CNC(=O)CNC(=O)CC[C@H](NC(=O)CNC(=O)CNC(=O)CNC(=O)CN2CCN(CC(=O)O)CCN(CC(=O)O)CCN(CC(=O)O)CC2)C(=O)NCC(=O)NCC(=O)NCC(=O)NCCCC[C@@H]2NC(=O)[C@@H](Cc3ccccc3)NC(=O)[C@H](CC(=O)O)NC(=O)CNC(=O)[C@H](CCCNC(=N)N)NC2=O)NC(=O)[C@@H](Cc2ccccc2)NC(=O)[C@H](CC(=O)O)NC(=O)CNC1=O [indium-111 labelled],"female athymic nu/nu mice, U87MG tumour","intravenous, 111 kBq, 1 h",,tissue uptake,10.7 ± 1.82 %ID/g

# Some of these lines once more:
SMILES,test system,setting,scale,endpoint,result
CCCC[C@H](NC(=O)COCCOCCNC(=O)CN1CCN(CC(=O)O)CCN(CC(=O)O)CC1)C(=O)N[C@H]1CC(=O)NCCCC[C@@H](C(N)=O)NC(=O)[C@H](Cc2c[nH]c3ccccc23)NC(=O)[C@H](CCCNC(=N)N)NC(=O)[C@@H](Cc2ccccc2)NC(=O)[C@H](Cc2c[nH]cn2)NC1=O [copper-64 labelled],"C57 mice, pancreas","intravenous, 0.37 MBq, 0.5 h",,tissue uptake,1.1 ± 0.2 %ID/g
